Results pooled from the literature.
Protocols differ between the studies behind these lines. ± marks the error that the study gave.

COc1cc(CNC(=O)C[C@H](C)CCC=C(C)C)ccc1OCc1cn(-c2ccccc2F)nn1 — growth percent (OVCAR-3 ovarian cancer cells; SRB; 10 µM, 48 h): 105%
C[C@@H](O)[C@H](NC(=O)[C@@H]1CSSC[C@H](NC(=O)[C@@H](Cc2ccccc2)NC(=O)CCNC(=S)Nc2ccc(C[C@H]3CN(CC(=O)O)CCN(CC(=O)O)CCN3CC(=O)O)cc2)C(=O)N[C@@H](Cc2ccc(O)cc2)C(=O)N[C@H](Cc2c[nH]c3ccccc23)C(=O)N[C@@H](CCCCN)C(=O)N[C@@H]([C@@H](C)O)C(=O)N1)C(=O)O [copper-64 labelled] — internalisation increase (HCT116-SSTR2; 15 min to 4 h, 64Cu-labelled): 49%
COc1cc(CNC(=O)C[C@H](C)CCC=C(C)C)ccc1O — growth percent (MDA-MB-468 breast cancer cells; SRB; 10 µM, 48 h): 99%
Cc1ccc(-c2cn([C@@H]3O[C@H](CO)[C@@H](O)[C@H]3O)c3ncnc(N)c23)cc1Cl — EC50 (HEK; cytotoxicity): > 200 µM
COc1cc(CNC(=O)C[C@H](C)CCC=C(C)C)ccc1OCc1cn(-c2ccc(Cl)cc2Cl)nn1 — growth percent (MDA-MB-468 breast cancer cells; SRB; 10 µM, 48 h): 50.4%
CCC(=C(c1ccc(Cl)cc1)c1ccc(OCCN2CCCC2)cc1)c1ccc(OC)cc1 — growth inhibition (NCI-60 tumour cell lines; 10 µM, mean over cell lines): 33.9%
N#Cc1[nH]nnc1-c1cccc(Oc2ccccc2)c1 — TCA cycle activation (CHO cells expressing NaCT; measured: [14C]citric acid metabolism; concentration not given, with: antimycin A): inhibited
CC(=C(c1ccc(O)cc1)c1ccc(Cl)cc1)c1ccc(Cl)cc1 — GI50 (SW-620; cell growth or viability, SRB): 0.82 µM
COc1cc(CNC(=O)C[C@H](C)CCC=C(C)C)ccc1OCc1cn(-c2cccc(Cl)c2)nn1 — growth percent (OVCAR-3 ovarian cancer cells; SRB; 10 µM, 48 h): 71%
Cc1cc2nc(-c3cc4ccccc4nc3Cl)[nH]c2cc1C — cells in G2 phase (HepG2; flow cytometry; 6 µM, 48 h): 34.8%
CSC(=NN=C(C)c1ccc(S(=O)(=O)N2CCC(C)CC2)cc1)N(C)C — necrotic cells (HepG2; annexin V/PI staining; IC50, 72 h): 3.12%
COc1cc(CNC(=O)C[C@H](C)CCC=C(C)C)ccc1OCc1cn(-c2ccccc2[N+](=O)[O-])nn1 — growth percent (SW-620; SRB; 10 µM, 48 h): 92.9%
CC1=CC(OC(=O)c2ccccc2)C2(COC(=O)c3ccccc3)CCC(=C(C)C)C2C(O)CC2(C)OC2CC1 (centres unmarked) — glucose consumption (HepG2, palmitic acid-induced insulin resistance; 12.5 µM, 24 h): 5.6 ± 0.47 mM
Cc1cc(-c2ccccc2)c2ccc3c(-c4ccccc4)cc(C)nc3c2n1.[Cl-].[Cl-].[Ru+2].c1ccc(-c2ccccn2)nc1.c1ccc(-c2ccccn2)nc1 — phototoxicity index (B16-F10; WST-1; baseline: dark IC50 over light IC50): > 900
COCCNCC(=O)N(CCCCN)CC(=O)N(CC(=O)N(CC(=O)N(CCCCN)CC(=O)N[C@@H](CCCCN)C(=O)N[C@H](CCCCN)C(=O)N[C@@H](CCSC)C(=O)NCCCC[C@H](NC(=O)[C@H](CCSC)NC(=O)[C@@H](CCCCN)NC(=O)[C@H](CCCCN)NC(=O)CN(CCCCN)C(=O)CN(C(=O)CN(Cc1ccc2c(c1)OCO2)C(=O)CN(CCCCN)C(=O)CNCCOC)[C@H](C)c1ccccc1)C(N)=O)[C@H](C)c1ccccc1)Cc1ccc2c(c1)OCO2 — onset concentration (H358; gene expression decrease, qRT-PCR, measured: ALDH1A3; 6 days): 10 µM
O=Cc1c(O)ccc2ccccc12 — log2 fold change (HUVEC; RNA sequencing, measured: ADGRF5; 75 µM, 24 h; baseline: DMSO): -4.3
CC(=O)OC[C@H]1O[C@@H](Sc2sc(C(=O)c3ccc(Br)cc3)c(N)c2-c2nc3ccccc3s2)[C@H](OC(C)=O)[C@@H](OC(C)=O)[C@H]1OC(C)=O — growth (HCC 2998; SRB; 10 µM, 48 h; baseline: untreated): 108%
